Measurements of several laboratories.
Protocols differ between the studies behind these lines. “And” joins repeats or separate records; there may be more than shown.
B1: human CAP2; sequence looked up; chain ANMQGLVERLERAVSRLESLSAESHRPPGNCGEVNGVIAGVAPSVEAFDKLMDSMVAEFLKNSRILAGDVETHAEMVHSAFQAQRAFLLMASQYQQPHENDVAALLKPISEKIQEIQTFRERNRGSNMFNHLSAVSESIPALGWIAVSPKPGPYVKEMNDAATFYTNRVLKDYKHSDLRHVDWVKSYLNIWSELQAYIKEHHTTGLTWSKTGPVASTVSAFSVLSSGPGLPPPPPPLPPPGPPPLFENEGKKEESSPSRSALFAQLNQGEAITKGLRHVTDDQKTYKNPSLRAQGGQTQSPTKSHTPSPTSPKSYPSQKHAPVLELEGKKWRVEYQEDRNDLVISETELKQVAYIFKCEKSTIQIKGKVNSIIIDNCKKLGLVFDNVVGIVEVINSQDIQIQVMGRVPTISINKTEGCHIYLSEDALDCEIVSAKSSEMNILIPQDGDYREFPIPEQFKTAWDGSKLITEPAEIMA

Molecule | target or system | test | test system | setting | how to read | measurement | value
Polymyxin B | Staphylococcus aureus | DiSC3(5) fluorescence | – | concentration not given, 75 min | higher = more depolarisation | membrane depolarisation | 454 a.u. and 597 a.u. and 524 a.u.
human lysozyme C | CYB5R4 knockout human cells | PP6 interaction, 3xFLAG-PP6C IP-MS | – | concentration not given | reference: CYB5R4 KO over parental | log2 fold change | -1.47
CTCATAGACT | Salmonella enterica serovar Typhimurium | RNA-seq, refers to: rpiA (SL1344_3039) | peptide, SL1344 | 5 µM, 15 min | reference: water control | log2 fold change | -2.73
Nisin | Bacillus subtilis | bacterial cytological profiling | ATCC 6633 | concentration not given | – | cell perimeter | 4.1 µm and 5.02 µm and 4.7 µm
B1 (human CAP2) | CYB5R4 knockout human cells | PP4 interaction, 3xFLAG-PP4C IP-MS | – | concentration not given | reference: CYB5R4 KO over parental | log2 fold change | 0.45
colistin | Escherichia coli | broth microdilution | clinical isolate RKI-No_583/16 | – | – | MIC | ≤ 0.5 µg/mL
GCCATGCTTT (PNA, CPP-conjugated) | Salmonella enterica serovar Typhimurium | – | peptide, SL1344 | 10 µM, 8 h | reference: initial count | log reduction | 1.84 log CFU/mL
milbemycin oxime | Saccharomyces cerevisiae | cell growth | Pdr5 deleted, Cdr1 overexpressed | 2^-3.966 µg/mL | – | OD600 | 1.01 and 0.978 and 1.02
colistin | Pseudomonas aeruginosa | – | PA1102 PER-producing isolate | – | – | MIC | 2 µg/mL
Polymyxin B | Pseudomonas aeruginosa | – | ATCC 27853 | 250 µg per disc, 24 h, 37 °C | – | inhibition zone diameter | 15 mm

Some of these lines once more:
Molecule | target or system | test | test system | setting | how to read | measurement | value
colistin | Escherichia coli | broth microdilution | clinical isolate RKI-No_583/16 | – | – | MIC | ≤ 0.5 µg/mL
